Results collected from several papers.
Each line is one published result; not all experiments were run side by side. “And” joins repeats or separate records; there may be more than shown.

SMILES = Cc1ccc(C=O)cc1; target or system = THP-1; assay = pyroptotic LDH release; conditions = 2 µM, 40 min, added: LPS then nigericin; quantity = inhibition; result = 7.15%
SMILES = COc1ccn2c(N)c(-c3ccccn3)nc2c1; target or system = Leishmania infantum; system = macrophages, MHOM/MA(BE)/67/ITMAP263, amastigote; quantity = IC50; result = 5.28 µM and 21.1 µM
SMILES = OC[C@H]1O[C@@](CO)(O[C@H]2O[C@H](CO)[C@@H](O)[C@H](O)[C@H]2O)[C@@H](O)[C@@H]1O; target or system = THP-1; assay = pyroptotic LDH release; conditions = 2 µM, 40 min, added: LPS then nigericin; quantity = inhibition; result = -13.5%
SMILES = CC(C)CN(c1ccc(F)cc1)c1c(-c2ccccn2)nc2ccccn12; target or system = Leishmania infantum; system = macrophages, MHOM/MA(BE)/67/ITMAP263, amastigote; quantity = IC50; result = 4.55 µM and 0.59 µM
SMILES = CC(C)n1ncc2c(C(=O)NCC3(C)CNC3)cc(C3CC3)nc21; target or system = coxsackievirus A6; assay = CPE; system = RD; conditions = 5 µM; quantity = cell protection; result = 103% and 99.8%
SMILES = O=C(O)CNC(=O)Cc1ccccc1; system = ventricular cardiomyocytes, C57BL/6 mouse; conditions = dose not given, 0.604 s; quantity = sarcomere length; result = 1.67 µm
SMILES = Cc1ccn2cc(-c3ccccn3)nc2c1; target or system = Leishmania infantum; system = MHOM/MA(BE)/67/ITMAP263; conditions = 120 h; how to read = reference: CC50 macrophages over EC50 amastigotes; quantity = selectivity index; result = 3.2
SMILES = Cn1cc(-c2ccc(-c3cncc(Cl)c3N3CCC4(CCNC4=O)CC3)cc2)cn1; target or system = COLO 205; assay = gene expression, microarray, measured: ARHGDIG mRNA; conditions = concentration not given, 6 h; how to read = reference: untreated cells; quantity = log2 fold change; result = 3.89
SMILES = CN(C)/N=N/c1[nH]cnc1C(N)=O; target or system = THP-1; assay = pyroptotic LDH release; conditions = 2 µM, 40 min, added: LPS then nigericin; quantity = inhibition; result = -3.09%
SMILES = OC(CCN1CCCCC1)(c1ccccc1)C1CC2C=CC1C2 (stereo not drawn); assay = resting-state EEG; system = healthy elderly humans; conditions = oral, 2 mg, eyes open, LS mean; quantity = EEG Beta1-power Pz-O1; result = 3.8 µV²
SMILES = COc1ccn2c(Cl)c(-c3ccccn3)nc2c1; target or system = Leishmania infantum; system = macrophages, MHOM/MA(BE)/67/ITMAP263, amastigote; quantity = IC50; result = 32.5 µM and 9.51 µM
SMILES = Cc1cccc(C(=O)O)c1O; target or system = THP-1; assay = pyroptotic LDH release; conditions = 2 µM, 40 min, added: LPS then nigericin; quantity = inhibition; result = 52.6%

Excerpt of the above:
SMILES = CC(C)CN(c1ccc(F)cc1)c1c(-c2ccccn2)nc2ccccn12; target or system = Leishmania infantum; system = macrophages, MHOM/MA(BE)/67/ITMAP263, amastigote; quantity = IC50; result = 4.55 µM and 0.59 µM
SMILES = CC(C)n1ncc2c(C(=O)NCC3(C)CNC3)cc(C3CC3)nc21; target or system = coxsackievirus A6; assay = CPE; system = RD; conditions = 5 µM; quantity = cell protection; result = 103% and 99.8%
